Published values pooled from the literature.
Compare with care: the assays were run in different laboratories.
Target: Receptor tyrosine-protein kinase erbB-2 (ERBB2, Homo sapiens, UniProt P04626)

The remaining binding of `CNS(=O)(=O)Nc1nccc(Cc2c(C)c3ccc(Oc4ncccc4F)cc3oc2=O)c1F` is reported as 61% (binding, competition with immobilised ligand; 10 µM).
With `CC[C@H](C)[C@H](NC(=O)[C@H](CCCCNC(=O)CN(CCNC(=O)CN(CCNC(=O)CN(CCNC(=O)CN(CCNC(=O)[C@H](CCCNC(=N)N)NC(C)=O)C(=O)Cn1ccc(N)nc1=O)C(=O)Cn1cnc2c(=O)[nH]c(N)nc21)C(=O)Cn1cnc2c(=O)[nH]c(N)nc21)C(=O)Cn1ccc(N)nc1=O)NC(=O)[C@H](C)NC(=O)[C@H](CCCNC(=N)N)NC(=O)[C@H](CCCCN)NC(=O)[C@H](CCC(N)=O)NC(=O)[C@H](CCC(N)=O)NC(=O)[C@H](CC(N)=O)NC(=O)[C@@H](NC(=O)[C@H](CCCN)NC(=O)[C@H](CC(N)=O)NC(=O)[C@@H]1CCCN1C(=O)[C@H](CC(=O)O)NC(=O)[C@H](CC(C)C)NC(=O)[C@H](C)NC(=O)[C@H](CS)NC(=O)[C@H](CCCC(=O)NCCN(CC(=O)NCCN(CC(=O)NCCN(CC(=O)NCCN(CC(N)=O)C(=O)Cn1cnc2c(=O)[nH]c(N)nc21)C(=O)Cn1ccc(N)nc1=O)C(=O)Cn1ccc(N)nc1=O)C(=O)Cn1cnc2c(=O)[nH]c(N)nc21)NC(=O)[C@H](Cc1c[nH]c2ccccc12)NC(=O)[C@H](Cc1ccc(O)cc1)NC(=O)[C@H](CCCNC(=N)N)NC(=O)[C@H](CC(N)=O)NC(=O)[C@H](CCCNC(=N)N)NC(=O)[C@H](CC1CCCCC1)NC(=O)[C@H](CCC(=O)O)NC(=O)[C@H](CCCCN)NC(C)=O)[C@@H](C)O)C(=O)N[C@@H](CCCNC(=N)N)C(=O)N[C@@H](CO)C(=O)N[C@H](C(=O)N[C@@H](Cc1ccc(O)cc1)C(=O)N[C@@H](CCC(=O)O)C(=O)N[C@@H](CCC(=O)O)C(=O)NCC(N)=O)[C@@H](C)CC` the enrichment was 1.39 (binding, affinity selection mass spectrometry; 1 h, 4 °C, unit not given; baseline: control-subtracted).
The remaining binding of `CN1CCN(Cc2ccc(NC(=O)c3cccc(C#Cc4cnc(N)c5ncccc45)c3)cc2C(F)(F)F)CC1` is reported as 15% (cell-free assay, competition with immobilised ligand; 50 nM).
`CC[C@H](C)[C@H](NC(=O)[C@H](CCCCNC(=O)CN(CCNC(=O)CN(CCNC(=O)CN(CCNC(=O)CN(CCNC(=O)[C@H](CCCNC(=N)N)NC(C)=O)C(=O)Cn1ccc(N)nc1=O)C(=O)Cn1cnc2c(=O)[nH]c(N)nc21)C(=O)Cn1cnc2c(=O)[nH]c(N)nc21)C(=O)Cn1ccc(N)nc1=O)NC(=O)[C@H](C)NC(=O)[C@H](CCCNC(=N)N)NC(=O)[C@H](CCCCN)NC(=O)[C@H](CCC(N)=O)NC(=O)[C@H](CCC(N)=O)NC(=O)[C@H](CC(N)=O)NC(=O)[C@@H](NC(=O)[C@H](CC(C)C)NC(=O)[C@H](CC(N)=O)NC(=O)[C@@H]1CCCN1C(=O)[C@H](CC(=O)O)NC(=O)[C@H](CC(C)C)NC(=O)[C@H](C)NC(=O)[C@H](CS)NC(=O)[C@H](CCCC(=O)NCCN(CC(=O)NCCN(CC(=O)NCCN(CC(=O)NCCN(CC(N)=O)C(=O)Cn1cnc2c(=O)[nH]c(N)nc21)C(=O)Cn1ccc(N)nc1=O)C(=O)Cn1ccc(N)nc1=O)C(=O)Cn1cnc2c(=O)[nH]c(N)nc21)NC(=O)[C@H](Cc1c[nH]c2ccccc12)NC(=O)[C@H](Cc1ccc(O)cc1)NC(=O)[C@H](CCCNC(=N)N)NC(=O)[C@H](CC(N)=O)NC(=O)[C@H](CCCNC(=N)N)NC(=O)[C@H](CC1CCCCC1)NC(=O)[C@H](CCC(=O)O)NC(=O)[C@H](CCCCN)NC(=O)[C@H](CO)NC(=O)[C@H](Cc1ccccc1)NC(C)=O)[C@@H](C)O)C(=O)N[C@@H](CCCNC(=N)N)C(=O)N[C@@H](CO)C(=O)N[C@H](C(=O)N[C@@H](Cc1ccc(O)cc1)C(=O)N[C@@H](CCC(=O)O)C(=O)N[C@@H](CCC(=O)O)C(N)=O)[C@@H](C)CC`: “dissociation rate constant” 0.0012 s⁻¹ (binding, SPR; 25 °C).
For `Cc1nc2c(F)cc(-c3nc(Nc4ccc(CNC(=O)CCCCCCC(=O)NO)cc4)ncc3F)cc2n1C(C)C`, the inhibition was 38% (enzyme activity, inhibitor; 1 µM).
`Cc1cccc(O[C@H]2CCC[C@@H](C(C)CNCc3ccncc3)C2)c1` (relative stereo) has an inhibition of -7% (enzyme activity, inhibitor; 10 µM).
The inhibition of `CN1CC[C@@H](COc2cnc(C#N)cc2-c2ccn3nc(NC(=O)C4CC4)cc3c2)C1` is reported as 5% (enzyme activity, inhibitor; 1 µM).
`C=CC(=O)Nc1cccc(-c2cnc3[nH]cc(C(=O)NC(C)(C)C)c3n2)c1` gave an inhibition of -7% (enzyme activity, inhibitor; 0.1 µM).
`CNC1C[S+]2CC[S+]3CC[S+](C1)[Ru-4]321([N]=C=S)[n]2c3ccc(OC)cc3c3c4c(c5cc(F)c[n+]1c5c32)C(=O)NC4=O` (stereo not drawn) gave a remaining binding of 100% (KinomeScan; 0.1 µM; baseline: untreated).
For `COc1ccc(NC(=O)Nc2ccc3c(c2)C(=O)N(C(C)CO)CC(C)C(CN(C)Cc2ccc4c(c2)OCO4)O3)cc1` (stereo not drawn), the remaining binding was 100% (binding, competition with immobilised ligand; 10 µM).
With `C=CC(=O)N1CCCC(n2c(=O)c3ncccc3n(Cc3ccc(Oc4ccccc4)cc3)c2=O)C1` (stereo not drawn) the remaining binding was 77% (cell-free assay, competition with immobilised ligand; 1 µM).
`CCN1CCN(Cc2ccc(C(=O)Nc3ccc(C)c(NCc4cnc5[nH]ccc5c4OC)c3)cc2C(F)(F)F)CC1` has a remaining binding of 6.2% (binding, competition with immobilised ligand; 1 µM).
`COc1c(Cl)cccc1Nc1c(-c2ccncc2C#C[C@@]2(C)CCCN2C(=O)/C=C/CN(C)C)[nH]c2c1C(=O)NCC2` gave a remaining binding of 2.4% (binding, competition with immobilised ligand; 3 µM).
`COc1cc(OC)c(F)c(/C=C/c2cnc3ccn(S(=O)(=O)c4cn(CCF)cn4)c3n2)c1F` gave an inhibition of 0% (10 nM).
For `C=CC(=O)N1CCc2ccc(-n3c(=O)ccc4cnc5ccc(-c6cnn(C)c6)cc5c43)cc21`, the remaining binding was 89% (KINOMEscan; 1 µM; baseline: DMSO control).
`CNC(=O)C[C@H](Cc1ccc(C#N)cc1)NC(=O)c1cc(-c2ccc(CN[C@H](C)c3ccc(C)cc3)o2)ccc1Cl`: “activity vs control” 91% (enzyme activity, inhibitor; 1 µM).
The enrichment of `CC[C@H](C)[C@H](NC(=O)[C@H](CCCCNC(=O)CN(CCNC(=O)CN(CCNC(=O)CN(CCNC(=O)CN(CCNC(=O)[C@H](CCCNC(=N)N)NC(C)=O)C(=O)Cn1ccc(N)nc1=O)C(=O)Cn1cnc2c(=O)[nH]c(N)nc21)C(=O)Cn1cnc2c(=O)[nH]c(N)nc21)C(=O)Cn1ccc(N)nc1=O)NC(=O)[C@H](C)NC(=O)[C@H](CCCNC(=N)N)NC(=O)[C@H](CCCCN)NC(=O)[C@H](CCC(N)=O)NC(=O)[C@H](CCC(N)=O)NC(=O)[C@H](CC(=O)O)NC(=O)[C@@H](NC(=O)[C@H](CC(C)C)NC(=O)[C@H](CC(N)=O)NC(=O)[C@@H]1CCCN1C(=O)[C@H](CC(=O)O)NC(=O)[C@H](CC(C)C)NC(=O)[C@H](C)NC(=O)[C@H](CS)NC(=O)[C@H](CCCC(=O)NCCN(CC(=O)NCCN(CC(=O)NCCN(CC(=O)NCCN(CC(N)=O)C(=O)Cn1cnc2c(=O)[nH]c(N)nc21)C(=O)Cn1ccc(N)nc1=O)C(=O)Cn1ccc(N)nc1=O)C(=O)Cn1cnc2c(=O)[nH]c(N)nc21)NC(=O)[C@H](Cc1c[nH]c2ccccc12)NC(=O)[C@H](Cc1ccc(O)cc1)NC(=O)[C@H](CCCNC(=N)N)NC(=O)[C@H](CC(N)=O)NC(=O)[C@H](CCCNC(=N)N)NC(=O)[C@H](CC1CCC1)NC(=O)[C@H](CCC(=O)O)NC(=O)[C@H](CCCCN)NC(=O)[C@H](CO)NC(C)=O)[C@@H](C)O)C(=O)N[C@@H](CCCNC(=N)N)C(=O)N[C@@H](CO)C(=O)N[C@H](C(=O)N[C@@H](Cc1ccc(O)cc1)C(=O)N[C@@H](CCC(=O)O)C(=O)N[C@@H](CCC(=O)O)C(N)=O)[C@@H](C)CC` is reported as 4.36 (binding, affinity selection mass spectrometry; 1 h, 4 °C, unit not given; baseline: control-subtracted).
`O=C(Nc1ccc(Oc2ncnc3[nH]cc(-c4ccccc4)c23)c(F)c1)c1c2n(n(-c3cc(F)ccc3F)c1=O)CCCC2` gave an inhibition of 2% (enzyme activity, inhibitor; 0.5 µM).

Some of these lines once more:
With `C=CC(=O)N1CCCC(n2c(=O)c3ncccc3n(Cc3ccc(Oc4ccccc4)cc3)c2=O)C1` (stereo not drawn) the remaining binding was 77% (cell-free assay, competition with immobilised ligand; 1 µM).
`O=C(Nc1ccc(Oc2ncnc3[nH]cc(-c4ccccc4)c23)c(F)c1)c1c2n(n(-c3cc(F)ccc3F)c1=O)CCCC2` gave an inhibition of 2% (enzyme activity, inhibitor; 0.5 µM).
